# Results gathered from unrelated publications.
# Each line is one published result; not all experiments were run side by side. ± gives the spread as reported.
# CSNK1A1/CRBN: Cereblon/Casein kinase I alpha (CSNK1A1/CRBN, Homo sapiens, UniProt P48729+Q96SW2)
# CD38: ADP-ribosyl cyclase/cyclic ADP-ribose hydrolase 1 (CD38, Homo sapiens, UniProt P28907)
# AKT3: RAC-gamma serine/threonine-protein kinase (AKT3, Homo sapiens, UniProt Q9Y243)
# T1: thiM TPP riboswitch transcriptional intermediate mimic, 2-aminopurine at 62 (Escherichia coli); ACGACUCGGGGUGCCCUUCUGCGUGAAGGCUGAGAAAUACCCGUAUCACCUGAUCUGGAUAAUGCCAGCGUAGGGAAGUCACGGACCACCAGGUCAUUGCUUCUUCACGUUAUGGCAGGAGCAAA
SMILES,target,test,system,conditions,scale,measurement,result
Nc1ncnc2c1ncn2[C@@H]1O[C@H](CO)[C@@H](O[C@H]2O[C@H](CO)[C@@H](OP(=O)(O)O)[C@H](OP(=O)(O)O)[C@H]2O)[C@H]1O,"Itpr1 (Rattus norvegicus, UniProt P29994)","binding, 3H-IP3 competition",rat cerebellum,,,Hill coefficient,0.7 ± 0.1
Cc1ccnc(-c2cc(C(=O)NCCCCn3cc(CN(CC(N)=O)C(=O)CN(CCCCN)C(=O)CN(CCCCN)C(=O)CN(CC(C)C)C(=O)CN(CCCCN)C(=O)CN(Cc4ccc5c(c4)OCO5)C(=O)CN(C(=O)CN(CCCCN)C(=O)CN(CC(C)C)C(=O)CNCCCCN)C(C)c4ccccc4)nn3)ccn2)c1 (stereo not drawn),recombinant luciferase,,,"concentration not given, irradiated 10 min",,luciferase activity,no effect
CSCC[C@H](NC(=O)[C@H](CC(C)C)NC(=O)[C@H](CCC(N)=O)NC(=O)[C@H](Cc1c[nH]cn1)NC(=O)[C@H](CCC(=O)O)NC(=O)[C@H](CO)NC(=O)[C@@H](NC(=O)[C@@H](N)CO)C(C)C)C(=O)N[C@@H](Cc1c[nH]cn1)C(=O)N[C@@H](CC(N)=O)C(=O)N[C@@H](CC(C)C)C(=O)NCC(=O)N[C@@H](CCCCN)C(=O)N[C@@H](Cc1c[nH]cn1)C(=O)N[C@@H](CC(C)C)C(=O)N[C@@H](CC(N)=O)C(=O)N[C@@H](CO)C(=O)N[C@@H](CCSC)C(=O)N[C@@H](CCC(=O)O)C(=O)N[C@@H](CCCNC(=N)N)C(=O)N[C@H](C(=O)N[C@@H](CCC(=O)O)C(=O)N[C@@H](Cc1c[nH]c2ccccc12)C(=O)N[C@@H](CC(C)C)C(=O)N[C@@H](CCCNC(=N)N)C(=O)N[C@@H](CCCCN)C(=O)N[C@@H](CCCCN)C(=O)N[C@@H](CC(C)C)C(=O)N[C@@H](CCC(N)=O)C(=O)N[C@@H](CC(=O)O)C(=O)N[C@H](C(=O)N[C@@H](Cc1c[nH]cn1)C(=O)N[C@@H](CC(N)=O)C(=O)N[C@@H](Cc1ccccc1)C(=O)N[C@@H](CCCCNC(=O)c1ccc2c(c1)C1(OC2=O)c2ccc(N(C)C)cc2Oc2cc(N(C)C)ccc21)C(N)=O)C(C)C)C(C)C,"PTH1R (Homo sapiens, UniProt Q03431)","binding, NanoBRET",,"pH 7.5, HEPES buffer",,koff,0.049 ± 0.01 s⁻¹
COc1cc(OC)c2c(c1)C(=O)c1cc3oc(=O)cc(-c4ccccc4)c3c(O)c1C2=O,mushroom tyrosinase,enzyme activity,,"50 µg/mL, together with: L-DOPA",,inhibition,32.53 ± 0.32%
COc1cc(C(=O)NC2CCC(N3CCN(CC4CCC5(CCCC5)C4)CC3)CC2)c(F)cc1Nc1ncc2c(n1)N(C1CCCC1(F)F)CC(F)(F)C(=O)N2C (stereo not drawn),"INSRR (Homo sapiens, UniProt P14616)","cell-free assay, TR-FRET",,10 µM,,inhibition,0.34%
CC1(C)CCN(Cc2ccc(C(=O)NC[C@]3(O)CCCN(c4cc(NCc5ccccc5)ncn4)C3)c(O)c2)CC1,"PIM1 (Homo sapiens, UniProt P11309)",radiometric,,"10 µM, together with: 10 µM ATP",,remaining activity,100%
CC(=O)NCCN(CCC(=O)NCCN(CCC(=O)NCCN(CCC(=O)NCCC(N)=O)C(=O)[C@@H](N)Cc1ccccc1)C(=O)[C@@H](N)CCCNC(=N)N)C(=O)[C@@H](N)Cc1ccccc1,HIV-1 TAR RNA,,,concentration not given,,heat capacity change ΔCp,-2.34 ± 0.43 kJ/mol/K
CCCCCC(=O)Nc1ccc(OC)nc1C,"CES1 (Homo sapiens, UniProt P23141)","enzyme activity, substrate",,,reference: CES1 over human CES2,specific activity ratio,1.5
Cc1ccccc1CN1CCN(C(=O)c2cccnc2)CC1,"MAPK14 (Homo sapiens, UniProt Q16539)",enzyme activity,,,,ligand efficiency,0.15
CC(C)C[C@H](NC(=O)CNC(=O)[C@H](CC(N)=O)NC(=O)[C@@H]1CCCN1C(=O)[C@@H](NC(=O)[C@@H](N)CO)[C@@H](C)OP(=O)(O)O)C(=O)O,"Serine/threonine-protein kinase PLK1, polo-box domain (PLK1, Homo sapiens, UniProt P53350)","polo-box domain binding, fluorescence polarization",,concentration not given,,binding,no binding
O=C1CC[C@H](N2Cc3cc(-c4cnn5ccc(Cl)nc45)ccc3C2=O)C(=O)N1,CSNK1A1/CRBN,"protein level, degrader, luciferase",MOLT-4,,,Dmax,50%
O=C(O)C(CO)NCc1cc(Cl)c(OCc2cccc(-c3ccccc3)c2Br)cc1OCc1cccnc1 (stereo not drawn),"Programmed cell death ligand 1 (Rattus norvegicus, UniProt D4AE25)",SPR,,,,dissociation rate constant (koff),0.00559 s⁻¹
CNc1ccccc1C(=O)O[C@H]1C[C@H](n2cnc3c(N)ncnc32)O[C@@H]1COP(=O)(O)OP(=O)(O)O,"Unconventional myosin-Va (Gallus gallus, UniProt Q02440, D297C/G292C/I296C/S293C/V295G)",stopped-flow FRET,compound complex,"25 °C, together with: 2 mM MgCl2",,FRET efficiency,0.81 ± 0.04
O=C1CC[C@H](N2Cc3cc(-c4cnn5ccc(NC6CCC(F)(F)CC6)nc45)ccc3C2=O)C(=O)N1,CSNK1A1/CRBN,"protein level, degrader, luciferase",MOLT-4,,,Dmax,0%
CC(=O)NCCN(CC(=O)NCCN(CC(=O)NCCN(CC(=O)NCCC(N)=O)C(=O)[C@@H](N)CCCNC(=N)N)C(=O)[C@@H](N)CCCCN)C(=O)[C@@H](N)Cc1ccccc1,HIV-1 TAR RNA,,,concentration not given,,heat capacity change ΔCp,-2.9 ± 0.38 kJ/mol/K
COC(=O)CN1C(C)=Nc2ccc(Br)cc2C1c1ccccc1 (stereo not drawn),"TPR (Trypanosoma brucei brucei, UniProt P39051)",inhibitor,S427,,,ligand efficiency,0.31
CC[C@@H](N)c1ccc(Cl)c(Oc2ccccc2)c1F,"Genome polyprotein, NS3 protease (Hepatitis C virus genotype 1b, UniProt P26663)","protease activity, inhibitor",,,,IC50,inactive
Cc1nc(SCC(=O)Nc2ccc(-n3cnnn3)cc2)c2c(C)c(C)sc2n1,CD38,"hydrolase activity, fluorometric",,"50 µM, together with: ε-NAD+ substrate",reference: untreated,remaining activity,52.7 ± 6.1%
CC(=O)NCCN(CCC(=O)NCCN(CCC(=O)NCCN(CCC(=O)NCCC(N)=O)C(=O)[C@@H](N)Cc1ccccc1)C(=O)[C@@H](N)Cc1ccccc1)C(=O)[C@@H](N)CCCNC(=N)N,HIV-1 TAR RNA,,,concentration not given,,heat capacity change ΔCp,-2 ± 0.4 kJ/mol/K
CC(C)CN(NC(=O)[C@H](CCCNC(=N)N)NC(=O)[C@H](Cc1ccc(O)cc1)NC(=O)CCCCCCC(=O)N[C@@H](Cc1ccc(O)cc1)C(=O)N[C@@H](CCCNC(=N)N)C(=O)NN(CC(C)C)C(=O)N[C@@H](CCCNC(=N)N)C(=O)N[C@@H](Cc1ccc(O)cc1)C(N)=O)C(=O)N[C@@H](CCCNC(=N)N)C(=O)N[C@@H](Cc1ccc(O)cc1)C(N)=O,"NPY4R (Homo sapiens, UniProt P50391)","reporter gene, agonist",HEK293 CRE-luciferase,"concentration not given, unit not given",reference: hPP,intrinsic activity,0.75
CNC(=O)c1ccc2c(c1)N(C)S(=O)(=O)c1cnc(SC)nc1-2,"Kinesin-like protein KIF15 (Homo sapiens, UniProt Q9NS87)",microtubule-activated ATPase activity,,"30 µM, together with: ATP, microtubules 3 µM",,kcat,3.6 ± 0.4 s⁻¹
CSCC[C@H](NC(=O)[C@H](CO)NC(=O)[C@@H](NC(=O)[C@H](CCC(N)=O)NC(C)=O)[C@@H](C)O)C(=O)N[C@H](C(=O)N[C@@H](CC(=O)O)C(=O)N[C@@H](Cc1ccccc1)C(=O)N[C@@H](Cc1ccc(O)cc1)C(=O)N[C@@H](Cc1c[nH]cn1)C(=O)N[C@@H](CO)C(N)=O)[C@@H](C)O,"PCNA (Homo sapiens, UniProt P12004)",isothermal titration calorimetry,,"concentration not given, pH 7.4, 25 °C, 300 mM NaCl, together with: p21 peptide",,binding stoichiometry,0.71 ± 0.08
CCNc1nc2c(c(=O)[nH]1)[n+](C)cn2[C@@H]1O[C@H](COP(=O)(O)OP(=O)(O)OP(=O)(O)OC[C@H]2O[C@@H](n3cnc4c(=O)[nH]c(N)nc43)[C@H](O)[C@@H]2O)[C@@H](O)[C@H]1O,"m7GpppX diphosphatase (dcs-1, Caenorhabditis elegans, UniProt G5EFS4)","decapping, substrate, HPLC",,concentration not given,,initial hydrolysis rate,6.27 ± 0.36 µM/min
Cc1ncc(C[n+]2csc(CCOP(=O)(O)OP(=O)(O)O)c2C)c(N)n1,"T1, thiM TPP riboswitch transcriptional intermediate mimic, 2-aminopurine at 62 (Escherichia coli)",2-aminopurine fluorescence,,"pH 7.5, 25 °C, KCl 100 mM, together with: TPP 3 µM",,binding,binds weakly
CC(=O)NCCN(CC(=O)NCCN(CC(=O)NCCN(CC(=O)NCCC(N)=O)C(=O)[C@@H](N)Cc1ccccc1)C(=O)[C@@H](N)CCCNC(=N)N)C(=O)[C@@H](N)CCCNC(=N)N,HIV-1 TAR RNA,,,concentration not given,,heat capacity change ΔCp,-1.98 ± 0.23 kJ/mol/K
NC(=O)C1CCNC(=O)C(CCCNC(=O)c2cnccn2)NC(=O)C(Cc2ccco2)NC(=O)C(CC=Cc2ccccc2)NC(=O)C=CC(=O)N1 (stereo not drawn),AKT3,DNA-templated library selection,,one selection round,,enrichment factor,1.2
Cc1cc(=O)oc2cc(NC(=O)CCCCCCC(=O)NO)ccc12,"HDAC8 (Homo sapiens, UniProt Q9BY41)",ITC,Tris-HCl buffer,"pH 7.5, 25 °C",,ΔG,-8.6 ± 0.2 kcal/mol
Cc1ccc(N2C(=O)c3ccccc3NC23C(=O)N(C)c2ccc(Br)cc23)cc1 (stereo not drawn),"LNPEP (Homo sapiens, UniProt Q9UIQ6)","enzyme activity, inhibitor","HEK293 overexpressing IRAP, membranes",together with: L-Leu-pNA,"reference: CHO-cell IRAP over HEK293 IRAP, higher = more loss on human IRAP",potency ratio,10 to 15 fold
CC(C)=CCCC(C)=CCc1cc(-c2coc3cc(OC4OC(C(=O)O)C(O)C(O)C4O)ccc3c2=O)ccc1O (stereo not drawn),"UGT1A9 (Homo sapiens, UniProt O60656)","glucuronidation of cholic acid, substrate",recombinant enzyme,substrate inhibition constant,,Ki,75.3 ± 6.26 µM
O=c1c(-c2ccc(OCc3ccc(F)cc3)cc2)coc2cc(OCc3ccc(F)cc3)cc(OCc3ccc(F)cc3)c12,CD38,"cyclase activity, fluorometric",,"50 µM, together with: NGD+ substrate",reference: untreated,remaining activity,40 ± 1.2%
C=C1C(=O)O[C@@H]2[C@H]3C(CO)=CC(=O)C3=C(C)C[C@H](OC(=O)Cc3ccc(O)cc3)[C@@H]12,"MAL12 (Saccharomyces cerevisiae S288c, UniProt P53341)","synchronous fluorescence, Δλ 15 nm",,"up to 65.22 µM, 298 K, red-shifted from 288 nm",,Tyr emission peak wavelength,292 nm
CC(=O)NCCN(CC(=O)NCCN(CC(=O)NCCN(CC(=O)NCCC(N)=O)C(=O)[C@@H](N)CCCNC(=N)N)C(=O)[C@@H](N)Cc1ccccc1)C(=O)[C@@H](N)Cc1ccccc1,HIV-1 TAR RNA,,,extrapolated to 1 M KCl,,non-electrostatic ΔG°,-8.054 ± 0.0717 kcal/mol
CN1C(=O)[C@@H](Cc2ccc(O)cc2)NC(=O)CNC(=O)[C@H](Cc2ccc3ccccc3c2)NC(=O)[C@H](CCCNC(=N)N)NC(=O)[C@H]1CCCNC(=O)c1ccc(CNC(=O)CN2CCN(CC(=O)O)CCN(CC(=O)O)CCN(CC(=O)O)CC2)cc1 [gallium-68 labelled],"CXCR4 (Homo sapiens, UniProt P61073)",,Daudi,"concentration not given, together with: 0.2 pmol tracer, 0.2 nmol DOTA-pentixafor block",,non-specific cell binding,0.3 ± 0.1%
O=C1C=CC(=O)N1c1ccccc1,"P2X purinoceptor 4 (P2rx4, Rattus norvegicus, UniProt P51577, I252C)","covalent modifier, patch clamp",,"0.5 mM, 2 min",,ATP-evoked current,no effect
NC(=O)C1CCNC(=O)C(CCCNC(=O)c2cnccn2)NC(=O)C(Cc2ccco2)NC(=O)C(CC2CC2)NC(=O)C=CC(=O)N1 (stereo not drawn),AKT3,DNA-templated library selection,,one selection round,,enrichment factor,2.2
O=C(/C=C/c1ccc(O)cc1)c1c(O)cc(O)cc1O,"Chalcone isomerase-like protein 1 (CHIL1, Humulus lupulus, UniProt A0A2U7XUH7)","binding, differential scanning fluorimetry",,,,ΔTm max,6.4 °C

# A few entries again:
SMILES,target,test,system,conditions,scale,measurement,result
CN1C(=O)[C@@H](Cc2ccc(O)cc2)NC(=O)CNC(=O)[C@H](Cc2ccc3ccccc3c2)NC(=O)[C@H](CCCNC(=N)N)NC(=O)[C@H]1CCCNC(=O)c1ccc(CNC(=O)CN2CCN(CC(=O)O)CCN(CC(=O)O)CCN(CC(=O)O)CC2)cc1 [gallium-68 labelled],"CXCR4 (Homo sapiens, UniProt P61073)",,Daudi,"concentration not given, together with: 0.2 pmol tracer, 0.2 nmol DOTA-pentixafor block",,non-specific cell binding,0.3 ± 0.1%
O=C1C=CC(=O)N1c1ccccc1,"P2X purinoceptor 4 (P2rx4, Rattus norvegicus, UniProt P51577, I252C)","covalent modifier, patch clamp",,"0.5 mM, 2 min",,ATP-evoked current,no effect
CCNc1nc2c(c(=O)[nH]1)[n+](C)cn2[C@@H]1O[C@H](COP(=O)(O)OP(=O)(O)OP(=O)(O)OC[C@H]2O[C@@H](n3cnc4c(=O)[nH]c(N)nc43)[C@H](O)[C@@H]2O)[C@@H](O)[C@H]1O,"m7GpppX diphosphatase (dcs-1, Caenorhabditis elegans, UniProt G5EFS4)","decapping, substrate, HPLC",,concentration not given,,initial hydrolysis rate,6.27 ± 0.36 µM/min
